Measured values pooled from the literature.
Each line is one published result; not all experiments were run side by side. “And” joins repeats or separate records; there may be more than shown. Numbers after ± are the reported error.

`NC(=O)N1c2ccccc2C=Cc2ccccc21`: “time to fall” 1.61 ± 0.09 min (rotarod test; mouse, CCI neuropathic pain model; 20 mg/kg).
For `C[C@H]1Oc2cc(cnc2N)-c2c(nn(C)c2C#N)CN(C)C(=O)c2ccc(F)cc21`, “dose-normalised Cmax, mean” read 6 ng/mL/mg (patients, plasma; oral, dose not given, cycle 2 day 1, together with: avelumab).
For `O=C(O)c1cccc(C(=O)O)c1`, “apparent dissolution enthalpy” read 13.8 kJ/mol (betaine/propylene glycol DES-water; DES mass fraction 0.70).
For `CC(C)(C(=O)N1CCOc2c(C#N)cncc2C1)C(F)F`, “subjects with adverse event” read 0% (item: Conjunctivitis; human; oral, 10 mg once daily, 14 days, multiple ascending dose).
With `CCOC(=O)c1cnc(Nc2nc3ccccc3o2)nc1CN1CCN(c2ccccc2)CC1` the logP was 2.89 (octanol/buffer; pH 11, known kinase inactives set).
`CC1(C)CCC(CN2CCN(c3ccc(C(=O)NS(=O)(=O)c4ccc(NCC5CCOCC5)c([N+](=O)[O-])c4)c(Oc4cnc5[nH]ccc5c4)c3)CC2)=C(c2ccc(Cl)cc2)C1`: “dose-normalised C6 (C6/D)” 0.49 (UPLC-MS/MS; responders; oral, dose not given, 6 h, normalised to dose per body weight).
`Cc1ccc(Sc2ccccc2N2CCNCC2)c(C)c1` gave a diarrhoea incidence of 0% (healthy adult men; oral, 10 mg single dose, treatment-emergent adverse events).
For `C[C@H]1O[C@@H](O[C@H]2[C@@H](O)C[C@H](O[C@H]3[C@@H](O)C[C@H](O[C@H]4CC[C@@]5(C)[C@H](CC[C@@H]6[C@@H]5C[C@@H](O)[C@]5(C)[C@@H](C7=CC(=O)OC7)CC[C@]65O)C4)O[C@@H]3C)O[C@@H]2C)C[C@H](O)[C@@H]1O`, “subjects with adverse event” read 0% (item: vascular disorders; healthy men; oral, dose not given, 8 days, treatment-emergent, crossover trial).
Under “ALT increased patients”, `CNC(=O)c1ccc(-c2cnc3ncc(Cc4ccc5ncccc5c4)n3n2)cc1F` is recorded as 12% (Japanese patients; oral, 400 mg, any grade).
Under “participants with serious TEAEs”, `C[C@H]1CN(C(=O)CC#N)[C@]12CCN(c1ncnc3[nH]ccc13)C2` is recorded as 0% (human; oral, dose not given).
With `COC(=O)c1ccc2c(c1)NC(=O)/C2=C(\Nc1ccc(N(C)C(=O)CN2CCN(C)CC2)cc1)c1ccccc1` the Vd/F was 18800 L (healthy human; oral, 150 mg single, alone).
`CCO[C@H]1CCN(Cc2c(OC)cc(C)c3[nH]ccc23)[C@H](c2ccc(C(=O)O)cc2)C1` — result for “incidence of abdominal discomfort”: 0% (PNH patients, active haemolysis; oral, 100 mg, 8 weeks, treatment).
`CCc1cc(C(=O)NC)c2nccc(N3CCc4c(cc(Cn5ccnc5)cc4-c4cn(C)nc4C(F)(F)F)C3=O)c2c1` has a haematocrit of 45.4 ± 1.35% (Sprague Dawley rats; oral, 50 mg/kg once daily, 7 days).
`Cc1cc(C)c(CNC(=O)c2cc(Cl)c3c(c2C)O[C@@](C)([C@H]2CC[C@H](N(C)C)CC2)O3)c(=O)[nH]1`: “patients with grade ≥3 TEAE” 4.2% (CTCAE v4.0, item: productive cough; human relapsed/refractory NHL; oral, 200 mg once daily, onset after cycle 1 day 1, overall treatment period).
For `CCn1ccc2c([C@](O)(c3cnc(C(F)(F)F)c(Cl)c3)C3CC3)n(C)nc2c1=O`, the CLint,u was 132 mL/min/kg (rat Sprague-Dawley male, blood; intravenous, 1 mg/kg).
With `CC(=O)c1cccc(NC(=O)CSc2nnc(-c3cc4ccccc4cc3O)n2C)c1` the logP was 1.48 (octanol/buffer; pH 11).
The total CO2 of `CCC(=O)N(CCC(c1ccc2c(c1)OCO2)c1ccccc1OC)Cc1ccccc1` (stereo not drawn) is reported as 14 mEq/L (mouse, blood; i.p., 60 mg/kg twice daily, 2 weeks).
`Cl.[2H]C([2H])([2H])CC(=O)c1cnc(NC(=O)C2CC2)cc1Nc1cccc(-c2ncn(C([2H])([2H])[2H])n2)c1OC` has a CL/F of 16.5 L/h (geometric mean; human; 20 mg once daily, day 1, fasted, liquid, multiple dose).
The priapism of `CCCn1cc(C)c2c(=O)[nH]c(-c3cc(S(=O)(=O)N4CCN(CC)CC4)ccc3OCC)nc21` is reported as 61.1% (human; concentration not given, treatment-emergent adverse event).
With `Cc1cc([C@H]2C[C@H]3[C@@H](CF)SC(N)=N[C@@]3(c3ccc(F)cc3F)CO2)on1` the brain concentration was 17.2 µM (male 129/SVE wild-type mouse, brain; subcutaneous, 100 mg/kg, 1 h).
`COc1ccc([C@@H](O)c2cc(-c3ncnc4cc(N5CCOCC5)ccc34)c(F)cc2Cl)nn1`: “drug-related lymphopenia incidence” 33% (locally advanced rectal cancer patients; 150 mg, together with: capecitabine and radiotherapy).
With `CC(C)(C)c1ccc(O)c(CN(Cc2cc(C(C)(C)C)ccc2O)C2CCC(NC(N)=O)CC2)c1` (stereo not drawn) the relative bioavailability was 61% (C57BL/6 mouse, male, plasma; oral, 10 mg/kg; baseline: oral AUC(0-inf) over intraperitoneal).
With `N[C@H]1C(O)O[C@H](CO)[C@@H](O)[C@@H]1O` (stereo partly drawn) the osmolality was 31 mOsmol/kg (aqueous solution; 35 mM, together with: glucose).
`O=S(=O)(c1ccc(-c2ccc3nccc(Nc4ccncn4)c3c2)cc1)N1CCOCC1` gave a brain concentration of 22.4 ng/mL (female BALB/c mice, brain homogenate; intraperitoneal, 10 mg/kg, 1 h, mean).
The logP of `Cc1c(NC(=O)C2CCCN2S(=O)(=O)c2ccccc2)c(=O)n(-c2ccccc2)n1C` (stereo not drawn) is reported as 0.98 (octanol/buffer; pH 11, known kinase inactives set).
`CCn1c(C(=O)N(C2CC2)C2CC2)cc2c3c(ncn3C)c(Nc3cc(C)n(C)n3)nc21` has a plasma concentration of 6350 ng/mL (cancer patients; oral, 200 mg twice daily, day 15, 340.0 h).
Under “incidence of serious acute myeloid leukaemia”, `C=CC(=O)N1CCC(c2ccc(C(N)=O)c(-c3ccc(Oc4ccccc4)cc3)n2)CC1` is recorded as 0.9% (CTCAE 4.03; patients with relapsed/refractory MCL; oral, dose not given).
`CNC(=O)c1cc(Oc2ccc(NC(=O)Nc3ccc(Cl)c(C(F)(F)F)c3)c(F)c2)ccn1` — result for “long-term stability accuracy”: 91.8% (mouse plasma; 750 ng/mL, 6 months, -80 °C).
`Nc1nc2c(nc([N+](=O)[O-])n2[C@@H]2O[C@H](CO)[C@@H](O)[C@H]2O)c(=O)[nH]1`: “nucleoside remaining fraction” 0.258 (depurination, RP-HPLC; citrate-phosphate buffer 0.5 mM; 2585 min, pH 7, 37 °C).
The logP of `NS(=O)(=O)c1ccc(NN=C2C(=O)Nc3ccc(C(=O)O)cc32)cc1` is reported as -1.5 (octanol/buffer; pH 11).
For `CNc1ccc(-c2nc3ccc(O)cc3s2)cc1` [carbon-11 labelled], the SUV was 0.146 ± 0.051 (ex vivo biodistribution; APP/PS1 mouse, AD model, bone; intravenous, 30 min).
For `CCN1/C(=C/C(C)=O)Sc2ccc(F)cc21`, “mean blood pressure change” read 101 ± 6.4% (cynomolgus monkey; oral, 100 mg/kg, 0.5 h post-dose; baseline: pre-dose).
For `CCc1c(-c2ccccc2)c(-c2ccccc2)nn1-c1ccccc1-c1cccc(OCC(=O)O)c1`, “elimination rate constant” read 0.332 h⁻¹ and 0.475 h⁻¹ and 0.391 h⁻¹ (Sprague-Dawley rat; intravenous).
`CO[C@H]1/C=C/O[C@@]2(C)Oc3c(C)c(O)c4c(O)c(c(/C=N/N5CCN(C)CC5)c(O)c4c3C2=O)NC(=O)/C(C)=C\C=C\[C@H](C)[C@H](O)[C@@H](C)[C@@H](O)[C@@H](C)[C@H](OC(C)=O)[C@@H]1C` — result for “adverse event Constipation”: 8.3% (healthy humans; oral, dose not given).
The zeta potential of `CCCCC/C=C\C/C=C\CCCCCCCCC(CCCCCCCC/C=C\C/C=C\CCCCC)OC(=O)CCCN(C)C` is reported as 2.8 mV (pH 5.5, formulated).
Under “decreased appetite incidence”, `CNCc1ccc(-c2[nH]c3cc(F)cc4c3c2CCNC4=O)cc1` is recorded as 37.5% (patients; oral, 360 mg twice daily, all grades).
With `Cc1cc(-c2nccc3c2ccn3CC(=O)Nc2ccc(-c3cnccn3)cn2)ccn1` the post-procedural erythema was 0% (human; 20 mg once daily, multiple ascending dose).
`C=CC(=O)N(C)CCOc1c(N)ncnc1-c1cc(F)cc(NC(=O)c2ccc(C3CC3)cc2F)c1C` has an AUC of 209 ng·h/mL (human, plasma; oral, 50 mg once daily, day 12).
Under “incidence of white blood cell decreased”, `NC1(C(=O)N[C@@H](CCO)c2ccc(Cl)cc2)CCN(c2nc[nH]c3nccc2-3)CC1` is recorded as 0% (metastatic CRPC patients; 400 mg b.i.d., grade 3 to 4, treatment-related, together with: enzalutamide 160 mg daily).
`O=C(Nc1nc2cccc(-c3ccc(CN4CCS(=O)(=O)CC4)cc3)n2n1)C1CC1`: “treatment-emergent adverse events” 0% (item: gingival bleeding; human rheumatoid arthritis patients; oral, 150 mg once daily, 4 weeks, regardless of relatedness).
`O=C(Nc1cc(C2CCCCC2)[nH]n1)c1ccc(Br)cc1` gave a logP of 4.64 (octanol/buffer, 40 mM buffer; pH 11).
`Nc1nnc(-c2cccc(Cl)c2Cl)c(N)n1`: “PR interval increase” 6.7 ms (human, plasma; 15 µg/mL, outliers excluded; baseline: baseline).
With `Nc1ccn([C@@H]2CS[C@H](CO)O2)c(=O)n1` the drug concentration was 26300 ± 4500 ng/g (Tat+ transgenic mouse, hippocampus; subcutaneous osmotic pump, dose not given, 5 d).
The haematocrit of `[O]=[Co].[O]=[Co][O][Co]=[O]` is reported as 52.7% (Crl:CD(SD) rat male, blood; oral, 220 mg Co/kg/day, 90 days, repeated dose).
The Tmax of `CCn1cc(C(=O)N2CCOCC2)c(=O)c2cc(NC3Cc4ccccc4C3)cnc21` is reported as 6 h (human, fed; oral suspension, 600 mg single dose, median).

Repeated from above:
`CC1(C)CCC(CN2CCN(c3ccc(C(=O)NS(=O)(=O)c4ccc(NCC5CCOCC5)c([N+](=O)[O-])c4)c(Oc4cnc5[nH]ccc5c4)c3)CC2)=C(c2ccc(Cl)cc2)C1`: “dose-normalised C6 (C6/D)” 0.49 (UPLC-MS/MS; responders; oral, dose not given, 6 h, normalised to dose per body weight).
For `C[C@H]1O[C@@H](O[C@H]2[C@@H](O)C[C@H](O[C@H]3[C@@H](O)C[C@H](O[C@H]4CC[C@@]5(C)[C@H](CC[C@@H]6[C@@H]5C[C@@H](O)[C@]5(C)[C@@H](C7=CC(=O)OC7)CC[C@]65O)C4)O[C@@H]3C)O[C@@H]2C)C[C@H](O)[C@@H]1O`, “subjects with adverse event” read 0% (item: vascular disorders; healthy men; oral, dose not given, 8 days, treatment-emergent, crossover trial).
`CCO[C@H]1CCN(Cc2c(OC)cc(C)c3[nH]ccc23)[C@H](c2ccc(C(=O)O)cc2)C1` — result for “incidence of abdominal discomfort”: 0% (PNH patients, active haemolysis; oral, 100 mg, 8 weeks, treatment).
For `CC(C)(C(=O)N1CCOc2c(C#N)cncc2C1)C(F)F`, “subjects with adverse event” read 0% (item: Conjunctivitis; human; oral, 10 mg once daily, 14 days, multiple ascending dose).
With `CCOC(=O)c1cnc(Nc2nc3ccccc3o2)nc1CN1CCN(c2ccccc2)CC1` the logP was 2.89 (octanol/buffer; pH 11, known kinase inactives set).
Under “decreased appetite incidence”, `CNCc1ccc(-c2[nH]c3cc(F)cc4c3c2CCNC4=O)cc1` is recorded as 37.5% (patients; oral, 360 mg twice daily, all grades).
The priapism of `CCCn1cc(C)c2c(=O)[nH]c(-c3cc(S(=O)(=O)N4CCN(CC)CC4)ccc3OCC)nc21` is reported as 61.1% (human; concentration not given, treatment-emergent adverse event).
